Assay results gathered from unrelated publications.
Compare with care: the assays were run in different laboratories. ± gives the spread as reported.

SMILES	cell line	effect on	technique	matrix	time	setting	IC50
CN(C)c1ccc2cc(S(=O)(=O)N3CC3C(N)=O)ccc2c1 (stereo not shown)	Balb/c 3T3 fibroblasts	cytotoxicity	neutral red uptake	DMEM with 5% FBS	24 h	–	19 ± 1 µM
COc1ccc(-n2cc(C(=O)OC3CC4(C)C(CC(O)C5C(C6(C)CCCC(C)(C)O6)CCC54C)C4(C)CCC(OC(=O)c5cn(-c6ccc(OC)cc6)nn5)C(C)(C)C34)nn2)cc1 (stereo not shown)	Hep3B	cell growth or viability	MTT	–	24 h	–	> 30 µM
CCCCCCc1ccc(S(=O)(=O)N2CC2C(=O)N(C)C)cc1 (stereo not shown)	Balb/c 3T3 fibroblasts	cytotoxicity	neutral red uptake	DMEM with 5% FBS	24 h	–	11 ± 1 µM
CC(=O)OCC1OC(n2ccc(=O)[nH]c2=O)C2CC=CCC12 (mixture of isomers)	CEM	cell growth	–	–	6 days	–	> 100 µM
CC(C)[C@H](N)C(=O)OC1CCC2(C)C(C(O)CC3(C)C2CC(O)C2C(C4(C)CCCC(C)(C)O4)CCC23C)C1(C)C (stereo partly shown)	Hep3B	cell growth or viability	MTT	–	24 h	–	> 30 µM
C=C1C(=O)OC2C=C(C)CCC=C(C(=O)OC(C)C(C)(O)C(=O)OC3C(OC(C)=O)C(C(=O)OC)=CCCC4(C)OC4C4OC(=O)C(=C)C34)CC(OC(=O)C(C)=CC)C12 (stereo not shown)	NIH/3T3	cytotoxicity	WST-8	–	48 h	10% FBS	1.67 µM
O=C(Nc1ccc2c(c1)CN(c1ccc(Cl)c(Cl)c1)C2=O)N1CCN(c2ccccc2)CC1	MRC-5 SV2	cytotoxicity	–	–	–	–	> 64 µM
CC(=O)OCC1OC(n2cc(C=CBr)c(=O)[nH]c2=O)C2CC=CCC12 (mixture of isomers)	CEM	cell growth	–	–	6 days	–	> 100 µM
CC1(C)CCCC(C)(C2CCC3(C)C2C(O)CC2C4(C)CCC(OC(=O)NC5CCCCC5)C(C)(C)C4C(OC(=O)NC4CCCCC4)CC23C)O1 (stereo not shown)	Hep3B	cell growth or viability	MTT	–	24 h	–	> 30 µM
O=C(Nc1ccc2c(c1)CN(c1ccccc1)C2=O)N1CC[C@H](O)C1	MRC-5 SV2	cytotoxicity	–	–	–	–	> 64 µM
CCCCCCCCCCN1C(=O)/C(=N\NC(=N)N)c2cc(C)ccc21	BJ	cell growth or viability	MTT	–	24 h	–	5.4 µg/mL
Cc1cc(=O)c2c(O)c3c(O[C@@H]4O[C@H](CO)[C@@H](O)[C@H](O)[C@H]4O)cc(O)cc3cc2o1	HepaRG in HK-2 co-culture	cell viability	MTT	–	24 h	–	> 500 µM
CCCCOc1ccc(S(=O)(=O)N2CC2C(=O)OC)cc1 (stereo not shown)	Balb/c 3T3 fibroblasts	cytotoxicity	neutral red uptake	DMEM with 5% FBS	24 h	–	310 ± 10 µM
CC(C)(C)OC(=O)N[C@@H](Cc1c[nH]c2ccccc12)C(=O)OC1CC2(C)C(CC(O)C3C(C4(C)CCCC(C)(C)O4)CCC32C)C2(C)CCC(O)C(C)(C)C12 (stereo partly shown)	Hep3B	cell growth or viability	MTT	–	24 h	–	> 30 µM
Clc1ccc2ccc3[n+](c2c1)[Ir-3]12([c]4ccccc4-3)([c]3ccccc3-c3ccc4ccc(Cl)cc4[n+]31)[n+]1ccccc1-c1cccc[n+]12.F[P-](F)(F)(F)(F)F	MDA-MB-231 CDK9 siRNA knockdown	cytotoxicity	MTT	–	–	–	1.5 µM
C=C1C(=O)OC2C=C(C)CCC=C(C(=O)OC(C)C(C)(O)C(=O)OC3C(OC(C)=O)C(C(=O)OC)=CCCC(C)=CC4OC(=O)C(=C)C43)CC(OC(=O)C(C)=CC)C12 (stereo not shown)	NIH/3T3	cytotoxicity	WST-8	–	24 h	10% FBS	4.98 µM
Oc1cc2nc(c1)CNCc1cc(O)cc(n1)CNC2	HT-22	cytotoxicity	MTT	–	16 h	–	566 µM
CC1OC(Oc2c(-c3ccc(O)cc3)oc3cc(O)cc(O)c3c2=O)C(OC(=O)C=Cc2ccc(O)cc2)C(O)C1OC(=O)C=Cc1ccc(O)cc1 (stereo not shown)	Hepa1-6	cell growth or viability	–	–	48 h	–	> 10 µM
O=C(Nc1ccc2c(c1)CN(c1ccc(Cl)cc1)C2=O)N1CC[C@H](O)C1	MRC-5 SV2	cytotoxicity	–	–	–	–	> 64 µM

SMILES	cell line	effect on	technique	matrix	time	setting	IC50
CC(C)C(NC(=O)OC(C)(C)C)C(=O)OC1CC2(C)C(CC(O)C3C(C4(C)CCCC(C)(C)O4)CCC32C)C2(C)CCC(OC(=O)C(NC(=O)OC(C)(C)C)C(C)C)C(C)(C)C12 (stereo not shown)	Hep3B	cell growth or viability	MTT	–	24 h	–	> 30 µM
Cc1ccc(N2Cc3cc(NC(=O)N4CCN(c5ccc(F)cc5)CC4)ccc3C2=O)cc1	MRC-5 SV2	cytotoxicity	–	–	–	–	> 64 µM
CC1(C)CCCC(C)(C2CCC3(C)C2C(O)CC2C4(C)CCC(OC(=O)c5cn(-c6ccc(Cl)cc6)nn5)C(C)(C)C4C(OC(=O)c4cn(-c5ccc(Cl)cc5)nn4)CC23C)O1 (stereo not shown)	Hep3B	cell growth or viability	MTT	–	24 h	–	> 30 µM
CN(C)C(=O)C1CN1S(=O)(=O)c1ccc(C2CCCCC2)cc1 (stereo not shown)	Balb/c 3T3 fibroblasts	cytotoxicity	neutral red uptake	DMEM with 5% FBS	24 h	–	10 ± 1 µM
O=C(Nc1ccc2c(c1)CN(c1ccc(Cl)cc1)C2=O)N1CC[C@H](F)C1	MRC-5 SV2	cytotoxicity	–	–	–	–	> 64 µM
Nc1ncnc2c1ncn2C1OC(CO)C2CC=CCC21 (mixture of isomers)	CEM	cell growth	–	–	6 days	–	> 100 µM
CC(C)(C)OC(=O)NCC(=O)OC1CCC2(C)C(C(O)CC3(C)C2CC(O)C2C(C4(C)CCCC(C)(C)O4)CCC23C)C1(C)C (stereo not shown)	Hep3B	cell growth or viability	MTT	–	24 h	–	> 30 µM
C=C1C(=O)O[C@@H]2/C=C(\C)CC/C=C(/C(=O)OC)[C@H](OC(C)=O)[C@@H](OC(=O)/C(C)=C\C)[C@@H]12	NIH/3T3	cytotoxicity	WST-8	–	24 h	10% FBS	9.09 µM
COC(=O)C1CN1S(=O)(=O)c1cccc2c(C=O)c(N(C)C)ccc12 (stereo not shown)	Balb/c 3T3 fibroblasts	cytotoxicity	neutral red uptake	DMEM with 5% FBS	24 h	–	26 ± 5 µM
CC1(C)CCCC(C)(C2CCC3(C)C2C(O)CC2C4(C)CCC(OC(=O)CN)C(C)(C)C4C(O)CC23C)O1 (stereo not shown)	Hep3B	cell growth or viability	MTT	–	24 h	–	> 30 µM
Cc1ccc(N2Cc3cc(NC(=O)N4CCN(c5cccc(C(F)(F)F)c5)CC4)ccc3C2=O)cc1	MRC-5 SV2	cytotoxicity	–	–	–	–	> 64 µM
CCCCCCc1ccc(S(=O)(=O)N2CC2C(N)=O)cc1 (stereo not shown)	Balb/c 3T3 fibroblasts	cytotoxicity	neutral red uptake	DMEM with 5% FBS	24 h	–	15 ± 2 µM
CCCC(CCC)C(=O)[O][Pt]([Cl])([Cl])[O]C(=O)C(CCC)CCC.N.N	HCT-116 p53-/-	cytotoxicity	–	–	72 h	–	1.4 ± 0.2 µM
COC(=O)C1CN1S(=O)(=O)c1ccc(N(C)C)c2ccccc12 (stereo not shown)	Balb/c 3T3 fibroblasts	cytotoxicity	neutral red uptake	DMEM with 5% FBS	24 h	–	153 ± 15 µM
CC(=O)OCC1OC(n2cnc3c(Cl)nc(Cl)nc32)C2CC=CCC12 (mixture of isomers)	CEM	cell growth	–	–	6 days	–	5.9 µM
C=C1C(=O)O[C@@H]2/C=C(\C)CC/C=C(/C(=O)OC)C[C@@H](OC(=O)/C(C)=C\C)[C@@H]12	NIH/3T3	cytotoxicity	WST-8	–	24 h	10% FBS	13.9 µM
COC(=O)C1CN1S(=O)(=O)c1cccc2c(N(C)C)cccc12 (stereo not shown)	Balb/c 3T3 fibroblasts	cytotoxicity	neutral red uptake	DMEM with 5% FBS	24 h	–	100 ± 7 µM
O=C(Nc1ccc2c(c1)CN(c1ccc(F)c(F)c1)C2=O)N1CCN(c2ccc(F)cc2)CC1	MRC-5 SV2	cytotoxicity	–	–	–	–	> 64 µM

For quick reference, copied from above:
SMILES	cell line	effect on	technique	matrix	time	setting	IC50
CN(C)C(=O)C1CN1S(=O)(=O)c1ccc(C2CCCCC2)cc1 (stereo not shown)	Balb/c 3T3 fibroblasts	cytotoxicity	neutral red uptake	DMEM with 5% FBS	24 h	–	10 ± 1 µM
O=C(Nc1ccc2c(c1)CN(c1ccc(Cl)c(Cl)c1)C2=O)N1CCN(c2ccccc2)CC1	MRC-5 SV2	cytotoxicity	–	–	–	–	> 64 µM
CC1(C)CCCC(C)(C2CCC3(C)C2C(O)CC2C4(C)CCC(OC(=O)c5cn(-c6ccc(Cl)cc6)nn5)C(C)(C)C4C(OC(=O)c4cn(-c5ccc(Cl)cc5)nn4)CC23C)O1 (stereo not shown)	Hep3B	cell growth or viability	MTT	–	24 h	–	> 30 µM
CC(=O)OCC1OC(n2cnc3c(Cl)nc(Cl)nc32)C2CC=CCC12 (mixture of isomers)	CEM	cell growth	–	–	6 days	–	5.9 µM
CC(=O)OCC1OC(n2cc(C=CBr)c(=O)[nH]c2=O)C2CC=CCC12 (mixture of isomers)	CEM	cell growth	–	–	6 days	–	> 100 µM
CCCCOc1ccc(S(=O)(=O)N2CC2C(=O)OC)cc1 (stereo not shown)	Balb/c 3T3 fibroblasts	cytotoxicity	neutral red uptake	DMEM with 5% FBS	24 h	–	310 ± 10 µM
